Results of several laboratories.
Cell line: LOX IMVI

| SMILES | read-out | technique | tested at | time | quantity | value |
| --- | --- | --- | --- | --- | --- | --- |
| C1=[N+]2CCCC[N+]3=Cc4ccc5[n]4[Au-]23[n]2c1ccc2-c1nc2ccccc2nc1-5.F[P-](F)(F)(F)(F)F | cell growth |  |  |  | IC50 | 1700 nM |
| COc1cc(CNC(=O)C[C@H](C)CCC=C(C)C)ccc1OCc1cn(-c2cccc(C(F)(F)F)c2)nn1 |  | SRB | 10 µM | 48 h | growth | 80.7% |
| CC(=O)OC[C@H]1O[C@@H](Sc2sc(C(=O)c3ccc(C)cc3)c(N)c2-c2nc3ccccc3s2)[C@H](OC(C)=O)[C@@H](OC(C)=O)[C@@H]1OC(C)=O |  | SRB | 10 µM | 48 h | growth | 54.5% |
| COc1cc(CNC(=O)C[C@H](C)CCC=C(C)C)ccc1OCc1cn(-c2ccccc2)nn1 |  | SRB | 10 µM | 48 h | growth | 92.3% |
| CCC(=C(c1ccc(Cl)cc1)c1ccc(OCCCN(C)C)cc1)c1ccc(OC)cc1 | cell growth or viability | SRB |  |  | GI50 | 870 nM |
| CC(=O)OC[C@H]1O[C@@H](Sc2sc(C(=O)c3ccc(Br)cc3)c(N)c2-c2nc3ccccc3s2)[C@H](OC(C)=O)[C@@H](OC(C)=O)[C@@H]1OC(C)=O |  | SRB | 10 µM | 48 h | growth | 37.1% |
| CC(Cc1ccc(Cl)cc1)=C(c1ccc(Cl)cc1)c1ccc(OCCN(C)C)cc1 | cell growth or viability | SRB |  |  | GI50 | 3020 nM |
| COc1cc(CNC(=O)C[C@H](C)CCC=C(C)C)ccc1OCc1cn(-c2ccc(Cl)c(Cl)c2)nn1 |  | SRB | 10 µM | 48 h | growth | 50.6% |
| CC/C=C\C/C=C\C/C=C\C/C=C\C/C=C\C/C=C\CCC(=O)Nc1ccn(C2OC(CO)C(O)C2(F)F)c(=O)n1 (stereo not shown) |  | NCI60 screen |  |  | TGI | 1070 nM |
| COc1ccc(C2=Nn3c(NN=C4C(=O)N(Cc5ccccc5)c5ccc(Cl)cc54)nnc3SC2)cc1 | cell growth or viability | SRB | 10 µM |  | inhibition | 37% |

Some of these lines once more:
| SMILES | read-out | technique | tested at | time | quantity | value |
| --- | --- | --- | --- | --- | --- | --- |
| CCC(=C(c1ccc(Cl)cc1)c1ccc(OCCCN(C)C)cc1)c1ccc(OC)cc1 | cell growth or viability | SRB |  |  | GI50 | 870 nM |
